Measurements pooled from the literature.
Each line is one published result; not all experiments were run side by side.

CC1C(=NOCc2cc(-c3ccc(Cl)cc3)no2)C(C)C(c2ccc(Cl)cc2)OC1c1ccc(Cl)cc1 (stereo not shown)  MIC (Aspergillus flavus; microbial growth): 12.5 µg/mL
O=C(NCc1nc(-c2ccc(Br)cc2)c[nH]1)Nc1ncc(Sc2ccccn2)s1  MIC (Bacteroides ovatus; broth microdilution; ATCC 8485; without verapamil): > 128 µM
CCCCCCSCC1OC(OC2C(N)CC(N)C(OC3OC(CN)C(O)CC3N)C2O)C(O)C(N)C1O (stereo not shown)  MIC (Listeria monocytogenes; ATCC 19115): 75 µg/mL
CC[C@H](C)[C@H](NC(=O)[C@@H](NC(=O)CN)C(C)C)C(=O)N[C@@H](Cc1ccccc1)C(=O)N[C@@H](CC(N)=O)C(=O)N[C@@H](C)C(=O)N[C@@H](CC(C)C)C(=O)N[C@@H](CCCCN)C(=O)NCC(=O)N[C@H](C(=O)N[C@@H](C)C(=O)N[C@@H](CCCCN)C(=O)N[C@H](C(=O)N[C@H](C(=O)N[C@@H](C)C(=O)N[C@@H](C)C(=O)N[C@@H](CCC(N)=O)C(=O)N[C@@H](CC(C)C)C(=O)N[C@@H](CC(C)C)C(=O)N[C@@H](CCCCN)C(=O)N[C@@H](CCCCN)C(=O)N[C@@H](C)C(=O)N[C@@H](CCCNC(=N)N)C(=O)N[C@H]1CSSC[C@@H](C(=O)O)NC(=O)[C@H](CO)NC(=O)[C@H](CCCCN)NC(=O)[C@H](CC(=O)O)NC(=O)[C@H](CC(C)C)NC(=O)[C@H](CCCCN)NC1=O)C(C)C)[C@@H](C)O)C(C)C  MIC (Staphylococcus aureus; MRSA NCTC 12493, Mueller-Hinton broth; added: MgCl2 1 mM): 2 µM
COc1ccc(C2=[N+]([O-])c3ccccc3N3CCN=C23)cc1  MIC (Peptostreptococcus anaerobius): 0.25 µg/mL
CC[C@H](C)[C@H](NC(=O)[C@H](CO)NC(=O)[C@H](CO)NC(=O)[C@H](Cc1ccccc1)NC(=O)CN)C(=O)N[C@@H](Cc1ccccc1)C(=O)N[C@@H](CCCNC(=N)N)C(N)=O  MIC (Escherichia coli; ATCC 8739; added: 1 mM MgCl2): > 128 µM
CC(C)C[C@@H]1NC(=O)[C@H](C)NC(=O)[C@H](NC(=O)[C@H](CO)NC(=O)[C@@H](CCCCN)NC(=O)[C@@H](CC(C)C)N(C)C(=O)[C@@H](N)Cc2ccccc2)[C@H](C)OC(=O)[C@H](CC(C)C)NC1=O  MIC (Bacillus subtilis Bacillus subtilis; ATCC 6051; tested as TFA salt): 32 µg/mL
[O-][N+]1=C(c2ccccc2)C2=NCCCN2c2ncccc21  MIC (Bacteroides ovatus; ATCC 84834): 0.125 µg/mL
CC(C)C[C@@H]1NC(=O)[C@H](C)NC(=O)[C@H](C)NC(=O)[C@H](NC(=O)[C@H](CO)NC(=O)[C@@H](CCCCN)NC(=O)[C@@H](CC(C)C)NC(=O)[C@@H](N)Cc2ccccc2)[C@H](C(N)=O)OC1=O  MIC (Bacillus subtilis Bacillus subtilis; ATCC 6051; tested as TFA salt): 0.5 to 1 µg/mL
[O-][N+]1=C(c2ccc(Cl)cc2)C2=NCCCCN2c2ccccc21  MIC (Eggerthella lenta; microbial growth; ATCC43055): 1 µg/mL

Excerpt of the above:
O=C(NCc1nc(-c2ccc(Br)cc2)c[nH]1)Nc1ncc(Sc2ccccn2)s1  MIC (Bacteroides ovatus; broth microdilution; ATCC 8485; without verapamil): > 128 µM
